{"data": "Literature values that unrelated publications cite", "note": "Compare with care: the assays were run in different laboratories. “And” joins repeats or separate records; there may be more than shown. Numbers after ± are the reported error."}
{"Compound": "COC(F)(F)C(F)(F)C(O)=CC(=O)c1cccnc1", "target or system": "Plasmodium falciparum", "test": "parasite growth", "test system": "3D7", "quantity": "EC50", "value": "3390 ± 10 nM"}
{"Compound": "CCn1c(C)c(CC(=O)N[C@@H](Cc2ccccc2)C(=O)N(C)c2cccc(Cl)c2)c2ccccc21", "target or system": "HIV-1", "test": "viral replication", "test system": "TZM-GFP, wild type", "quantity": "EC50", "value": "490 ± 200 nM"}
{"Compound": "O=C(C=C(O)C(F)(F)C(F)(F)F)c1ccoc1", "target or system": "Plasmodium falciparum", "test": "parasite growth", "test system": "3D7", "quantity": "EC50", "value": "860 ± 80 nM"}
{"Compound": "Cc1c(CC(=O)N[C@@H](Cc2ccccc2)C(=O)N(C)c2ccccc2)c2ccccc2n1C(C)C", "target or system": "HIV-1", "test": "viral replication", "test system": "TZM-GFP, wild type", "quantity": "EC50", "value": "300 ± 30 nM"}
{"Compound": "O=C(C=C(O)C(F)(F)C(F)(F)F)c1cccs1", "target or system": "Plasmodium falciparum", "test": "parasite growth", "test system": "3D7", "quantity": "EC50", "value": "1920 ± 170 nM"}
{"Compound": "Cc1[nH]c2ccccc2c1CC(=O)N[C@@H](Cc1ccccc1)C(=O)N(C)c1ccccc1", "target or system": "HIV-1", "test": "viral replication", "test system": "TZM-GFP, wild type", "quantity": "EC50", "value": "600 ± 200 nM"}
{"Compound": "O=S(=O)(c1ccc(-c2ccc3ncnc(Nc4ccc(OCc5ccc(F)cc5)c(Cl)c4)c3c2)cc1)N1CCOCC1", "target or system": "Trypanosoma brucei", "test": "parasite growth", "quantity": "EC50", "value": "1300 nM"}
{"Compound": "Oc1c(C(c2ccccc2)c2c[nH]c3ccccc23)cc(Cl)c2cccnc12 (stereo not drawn)", "target or system": "COLO 205", "test": "cytotoxicity", "quantity": "IC50", "value": "2490 nM and 2630 nM"}
{"Compound": "CC(C)(C)NS(=O)(=O)c1ccccc1-c1ccc2ncnc(Nc3ccc(OCc4cccc(F)c4)c(Cl)c3)c2c1", "target or system": "Trypanosoma brucei", "test": "parasite growth", "quantity": "EC50", "value": "4700 nM"}
{"Compound": "CC(=O)Sc1ccccc1C(=O)NCCC(N)=O", "target or system": "HIV-1", "test": "viral replication", "test system": "human PBMC, 92HT599", "quantity": "EC50", "value": "5740 ± 1260 nM"}
{"Compound": "O=C(C=C(O)C(F)(F)C(F)(F)F)c1ccsc1", "target or system": "Plasmodium falciparum", "test": "parasite growth", "test system": "3D7", "quantity": "EC50", "value": "1870 ± 150 nM"}
{"Compound": "Fc1cccc(COc2ccc(Nc3ncnc4ccc(-c5ccc(N6CCNCC6)cc5)cc34)cc2Cl)c1", "target or system": "Trypanosoma brucei", "test": "parasite growth", "quantity": "EC50", "value": "370 nM"}
{"Compound": "CC(C)(C#Cc1ccc(-c2ccc(Cl)c3c(NS(C)(=O)=O)nn(CC(F)(F)F)c23)c([C@H](Cc2ccccc2)NC(=O)Cn2nc(C(F)(F)F)c3c2C(F)(F)[C@@H]2C[C@H]32)n1)S(C)(=O)=O", "target or system": "HIV-1", "test": "viral replication", "test system": "wild type", "quantity": "EC50", "value": "0.39 nM"}
{"Compound": "O=S(=O)(c1ccc(-c2ccc3ncnc(Nc4ccc(OCc5cccc(F)c5)c(Cl)c4)c3c2)cc1)N1CCCCC1", "target or system": "Trypanosoma brucei", "test": "parasite growth", "quantity": "EC50", "value": "320 nM"}
{"Compound": "Cn1cnc([N+](=O)[O-])c1Sc1ccccc1C(=O)NCCC(N)=O", "target or system": "HIV-1", "test": "viral replication", "test system": "CEM-SS, RF", "quantity": "EC50", "value": "3640 ± 3280 nM"}
{"Compound": "CCn1c(C)c(CC(=O)N[C@@H](Cc2ccccc2)C(=O)N(C)c2ccc(F)cc2)c2ccccc21", "target or system": "HIV-1", "test": "viral replication", "test system": "TZM-GFP, wild type", "quantity": "EC50", "value": "220 ± 96 nM"}
{"Compound": "CCCC(=O)OCSc1ccccc1C(=O)NCCC(N)=O", "target or system": "HIV-1", "test": "viral replication", "test system": "human PBMC, 92HT599", "quantity": "EC50", "value": "2000 ± 1040 nM"}
{"Compound": "COc1ccc(Nc2nc(Nc3ccc(OCC[18F])cc3)ncc2Br)cc1", "test system": "S180 tumour-bearing mice, brain", "setting": "intravenous, 15 min", "quantity": "tissue uptake", "value": "0.89 ± 0.18 %ID/g"}
{"Compound": "CC(C)(C)OC(=O)N1CCN(c2ccc(-c3ccc4ncnc(Nc5ccc(OCc6cccc(F)c6)c(Cl)c5)c4c3)cc2)CC1", "target or system": "Trypanosoma brucei", "test": "parasite growth", "quantity": "EC50", "value": "6000 nM"}
{"Compound": "O=C(C=C(O)C(F)(F)c1ccccc1)c1cccnc1", "target or system": "Plasmodium falciparum", "test": "parasite growth", "test system": "3D7", "quantity": "EC50", "value": "36600 ± 11100 nM"}
{"Compound": "Fc1cccc(COc2ccc(Nc3ncnc4ccc(-c5ccc(CN6CCCCC6)cc5)cc34)cc2Cl)c1", "target or system": "Trypanosoma brucei", "test": "parasite growth", "quantity": "EC50", "value": "1500 nM"}
{"Compound": "Cc1c(CC(=O)N[C@@H](Cc2ccccc2)C(=O)N(C)c2ccc(Cl)cc2)c2ccccc2n1C(C)C", "target or system": "HIV-1", "test": "viral replication", "test system": "TZM-GFP, wild type", "quantity": "EC50", "value": "150 ± 10 nM"}
{"Compound": "Cc1ccc(Nc2ncnc3ccc(-c4ccc(S(=O)(=O)N5CCOCC5)cc4)cc23)cc1", "target or system": "Trypanosoma brucei", "test": "parasite growth", "quantity": "EC50", "value": "1200 nM"}
{"Compound": "Oc1c(Cc2c[nH]c3ccccc23)cc(Cl)c2cccnc12", "target or system": "COLO 205", "test": "cytotoxicity", "quantity": "IC50", "value": "12300 nM and 13600 nM and 13400 nM"}
{"note": "Some of these lines once more:"}
{"Compound": "Cn1cnc([N+](=O)[O-])c1Sc1ccccc1C(=O)NCCC(N)=O", "target or system": "HIV-1", "test": "viral replication", "test system": "CEM-SS, RF", "quantity": "EC50", "value": "3640 ± 3280 nM"}
{"Compound": "CCn1c(C)c(CC(=O)N[C@@H](Cc2ccccc2)C(=O)N(C)c2ccc(F)cc2)c2ccccc21", "target or system": "HIV-1", "test": "viral replication", "test system": "TZM-GFP, wild type", "quantity": "EC50", "value": "220 ± 96 nM"}
{"Compound": "CCCC(=O)OCSc1ccccc1C(=O)NCCC(N)=O", "target or system": "HIV-1", "test": "viral replication", "test system": "human PBMC, 92HT599", "quantity": "EC50", "value": "2000 ± 1040 nM"}
